Measured values collected from several papers.
± gives the spread as reported.

Cc1ccnc(-c2cc(C)ccn2)c1.O.[C-]#[O+].[C-]#[O+].[C-]#[O+].[Re+]  capacity factor (RP-HPLC C18 column, item: MeCN adduct; MeCN:water 40:60, 0.1% TFA; isocratic elution): 7.1
Cc1ccc(/C=C/C(=O)O)cc1-c1cc2c(cc1C)C(C)(C)CCC2(C)C  blood cholesterol (Sprague-Dawley rat, male; oral, 100 mg/kg, 12 h, sesame oil vehicle): 66 ± 10.6 mg/dL
C/C=C/C=C/C/C=C/CCCCCCCc1cccc(O)c1O  tissue concentration (female Kunming mice, tumour-bearing, kidneys; intravenous, 10 mg/kg, 12 h): 1320 ± 390 ng/g
Nc1ccn(C[C@@H](CO)OCP(=O)(O)OCCCS(=O)(=O)CCCCCCCCCCCCCC2CCC2)c(=O)n1  NOAEL (uninfected mice; once daily dosing): 30 mg/kg/day
CCCCCCCCCCCCC(=O)O.O=C1CCCC2C3CCCN4CCCC(CN12)C34 (stereo not drawn)  critical micelle concentration (water; concentration not given, 293.15 K): 0.00235 mol/kg
CC[C@H](C)[C@H](NC(=O)CNC(=O)[C@H](Cc1c[nH]cn1)NC(=O)[C@H](CC(C)C)NC(=O)CNC(=O)[C@H](CC(C)C)NC(=O)[C@H](CCCCN)NC(=O)[C@H](Cc1ccccc1)NC(=O)[C@H](CC(C)C)NC(=O)[C@H](CCCCN)NC(=O)CNC(=O)[C@H](Cc1c[nH]c2ccccc12)NC(=O)[C@H](Cc1ccccc1)NC(=O)CN)C(=O)NCC(=O)N[C@@H](CC(C)C)C(=O)N[C@@H](CC(C)C)C(=O)N[C@@H](Cc1c[nH]cn1)C(=O)N[C@@H](CC(C)C)C(=O)N[C@@H](Cc1c[nH]cn1)C(=O)N[C@@H](CC(C)C)C(N)=O  acute toxic concentration (zebrafish embryos; 1 h, 4, 28, 52 hpf): 1 to 5 µg/mL
CC[C@H](C)C(=O)N1CCC(NC(=O)Nc2ccc(OC(F)(F)F)c(F)c2)CC1  subjects with related TEAE (healthy volunteers; oral, 2 mg single dose): 0%
O=c1cc(-c2ccccc2)oc2c(Br)c(O)c(O)c(O)c12  CL (C57BL/6 mouse, plasma; po, 50 mg/kg): 1060 ± 450 mL/h
COC(=O)C[C@](O)(CCCC(C)(C)OC(C)=O)C(=O)O[C@@H]1C(OC)=C[C@]23CCCN2CCc2cc4c(cc2[C@H]13)OCO4  tissue concentration (CD1 mouse, liver; oral, 1 mg/kg, 0.5 h): 167 ng/mL
COc1ccc2c3c(c4cc(OC)c(OC)cc4c2c1)CN1CCCCC1C3 (stereo not drawn)  CC50 (swine cells; 24 (unit not given)): 41.9 ± 6.92 µM
CCNc1cc2[o+]c3cc(NCC)c(C)cc3c(-c3ccccc3C(=O)OCCOCC[18F])c2cc1C  tissue uptake (rat, lung; 15 min): 1.08 ± 0.34 %ID/g
CC1=CC(C)(C)N=C2C=CC(=O)C=C12  MTD (general toxicity; mouse; oral): 425 mg/kg
CN(C)C(CNC(=O)Nc1cc(C(F)(F)F)ccc1N1CCOCC1)c1ccncc1 (stereo not drawn)  serum magnesium (mouse, serum; intraperitoneal, 120 mg/kg single dose): 2.6 mg/dL
C[C@@H]1CC[C@H]2[C@@H](C)CO[C@@H]3O[C@@]4(C)CC[C@@H]1[C@]32OO4  C0 (male Sprague-Dawley rat, plasma; intravenous, 5 mg/kg): 4370 ng/mL
C[C@@H]1CCCN1CCc1cc2cc(C(=O)c3ccc([18F])cc3)ccc2o1  time of peak uptake (rhesus monkey, striatum; baseline): ~27.5 min
CC(C)(CCCC/C=C/CCCCCC(C)(C)C(=O)O)C(=O)O  plasma AST and ALT (rhesus monkeys, spontaneous hyperlipidemia, plasma; 20 mg/kg, 2 weeks): decreased
N=C(N)NCc1ccc(C(=O)NCCCC[C@H](NC(=O)N[C@@H](CCC(=O)O)C(=O)O)C(=O)O)cc1[131I]  tissue uptake (SCID mouse, PC-3 xenografts, lungs; 1 h): 2.43 ± 0.38 %ID/g
COc1cc(NC(=O)C(=O)c2c(C)n(Cc3ccc(Cl)cc3)c3ccc(C)cc23)ccn1  bioavailability (cynomolgus monkey, plasma; oral, 10 mg/kg): 14 to 21%
CC1N=C(c2ccccc2F)c2cc(Br)ccc2-n2cnc(C(=O)OC3OC(CO)C(O)C(O)C3O)c21 (stereo not drawn)  cumulative excretion (LC-MS/MS; Swiss Webster mouse, female, urine; intraperitoneal, 750 µg parent drug, 0 to 24 h): 13.9 ± 7.1%
CC[C@@H]1C[C@]1(NC(=O)[C@@H]1C[C@@]2(CN1C(=O)[C@@H](NC(=O)[C@@H](NC(=O)[C@@H]1CCCCN1C(C)C)C1CCCCC1)C(C)(C)C)C(C)(C)C21CCC1)C(=O)NS(=O)(=O)N1CCCC1  subjects with adverse event (item: abdominal pain; healthy human; oral, 50 mg, together with: ritonavir 100 mg): 0%
[11CH3]n1c(=O)n(CCCO)c(=O)c2c1nc(Oc1cccc(OC(F)(F)F)c1)n2Cc1ccc(Cl)cc1  tracer uptake (ex vivo biodistribution; Sprague Dawley rat, heart; 60 min post injection): 0.61 ± 0.13 %ID/g
CC(C)C[C@@H](N)C(=O)NCC(=O)N[C@H](C)C(=O)N[C@H](CO)C(=O)N[C@H](Cc1c[nH]c2ccccc12)C(=O)N[C@H](Cc1c[nH]cn1)C(=O)N[C@H](CCCNC(=N)N)C(=O)N1CCC[C@@H]1C(=O)N[C@H](CC(=O)O)C(=O)N[C@H](CCCCN)C(=O)N[C@H](CS)C(=O)N[C@H](CS)C(=O)N[C@H](CC(C)C)C(=O)NCC(=O)N[C@H](Cc1ccc(O)cc1)C(=O)N[C@H](CCC(N)=O)C(=O)N[C@H](CCCCN)C(=O)N[C@H](CCCNC(=N)N)C(=O)N1CCC[C@@H]1C(=O)N[C@H](CC(C)C)C(=O)N1CCC[C@@H]1C(N)=O  accuracy (LC-MS/MS; rat plasma; 25 ng/mL, 12 h, 25 °C, room temperature before extraction; reference: nominal): 97.6%
C=CCn1cnc2c(NCc3ccc(C)s3)nc(N[C@H](CC)CO)nc21  pKa2: -0.26
CC(C)C[C@H](NC(=O)[C@H](CCCCN)NC(=O)[C@H](CCC(=O)O)NC(=O)[C@H](C)NC(=O)[C@@H](NC(=O)[C@H](CCCCN)NC(=O)[C@H](CC(=O)O)NC(=O)[C@H](Cc1ccc(O)cc1)NC(=O)[C@H](Cc1ccccc1)NC(=O)[C@H](C)NC(=O)[C@H](CCCCN)NC(=O)[C@H](CC(C)C)NC(=O)[C@H](Cc1c[nH]c2ccccc12)NC(=O)[C@@H](N)CC(=O)O)C(C)C)C(=O)N[C@@H](CCCCN)C(=O)N[C@@H](CCC(=O)O)C(=O)N[C@@H](C)C(=O)N[C@@H](Cc1ccccc1)C(=O)N1CCC[C@H]1C(=O)N[C@@H](CC(=O)O)C(=O)N[C@@H](Cc1c[nH]c2ccccc12)C(=O)N[C@@H](C)C(=O)N[C@@H](CCCCN)C(=O)N[C@@H](C)C(=O)N[C@@H](C)C(=O)N[C@@H](Cc1ccc(O)cc1)C(=O)N[C@@H](CC(=O)O)C(=O)N[C@@H](CCCCN)C(=O)N[C@@H](C)C(=O)N[C@@H](C)C(=O)N[C@@H](CCC(=O)O)C(=O)N[C@@H](CCCCN)C(=O)N[C@@H](C)C(=O)N[C@@H](CCCCN)C(=O)N[C@@H](CCC(=O)O)C(=O)N[C@@H](C)C(=O)N[C@@H](C)C(=O)O  volume of distribution at steady state (cynomolgus monkey male, plasma; intravenous infusion, 75 mg/kg every other day, day 27): 0.057 L/kg
O=C(c1ccc(F)cc1)C1CCN(C2Cc3c(cccc3OCC[18F])CC2O)CC1 (single isomer, unassigned; (-))  tissue uptake (Sprague-Dawley rat, male, whole brain; 5 min post-injection): 0.684 ± 0.079 %ID/g
CC(C)[C@H](NC(=O)CNC(=O)[C@H](CCC(N)=O)NC(=O)[C@H](C)N)C(=O)O  subjects with any adverse event (human; 10 mg/kg single dose): 33.3%
CC(C)C[C@@H](NC(=O)[C@@H](Cc1ccccc1)NC(=O)[C@H](N)Cc1ccccc1)C(=O)N[C@H](CCCCN)C(=O)N1CCC(N)(C(=O)O)CC1  AUC(0-t) (human, plasma; intravenous, 5 µg/kg): 94 ng·h/mL
O=C(N=P12CN3CN(CN(C3)C1)C2)c1ccccn1.[Cl][Au+][Cl].[O-][Cl+3]([O-])([O-])[O-]  decomposition time (NMR; DMSO; room temperature): 4 h
CC[C@@H](C)[C@H](NC(=O)[C@H](C)NC(=O)[C@H](CCCCN)NC(=O)[C@H](CC(C)C)NC(=O)[C@H](C)NC(=O)[C@@H](NC(=O)[C@H](Cc1c[nH]cn1)NC(=O)[C@H](CC(C)C)NC(=O)[C@@H](NC(=O)[C@@H](NC(=O)[C@H](CCCCN)NC(=O)[C@H](CCCCN)NC(=O)[C@H](C)NC(=O)[C@H](CO)NC(=O)[C@H](CCCCN)NC(=O)[C@H](Cc1ccccc1)NC(=O)[C@@H](NC(=O)[C@H](CCCCN)NC(=O)[C@H](CC(C)C)NC(=O)[C@H](Cc1ccccc1)NC(=O)[C@H](CO)NC(=O)[C@H](CCCCN)NC(=O)[C@H](Cc1c[nH]c2ccccc12)NC(=O)[C@H](CCCCN)NC(C)=O)[C@@H](C)O)[C@@H](C)O)C(C)C)[C@@H](C)O)C(=O)N[C@@H](CO)C(=O)N[C@@H](CO)C(N)=O  mean residue ellipticity (circular dichroism at 222 nm; KCl phosphate buffer; 75 µM, pH 7.4, 30 °C): -2950 deg cm² dmol⁻¹
CSCC[C@H](NC(=O)CNC(=O)[C@H](CCCCN)NC(=O)[C@H](CC(C)C)NC(=O)[C@@H]1CCCN1C(=O)[C@H](CO)NC(=O)[C@H](Cc1c[nH]cn1)NC(=O)[C@H](Cc1c[nH]c2ccccc12)NC(=O)[C@H](CCCNC(=N)N)NC(=O)[C@H](CC(C)C)NC(=O)[C@H](CCCNC(=N)N)NC(=O)[C@H](Cc1c[nH]c2ccccc12)NC(=O)[C@H](CS)NC(=O)CCCCCNC(=O)CN1CCN(CC(=O)O)CCN(CC(=O)O)CCN(CC(=O)O)CC1)C(=O)O [copper-64 labelled]  tumour uptake (BALB/c nude mice, Huh-7 xenograft, tumour; intravenous, 1.85 MBq, 1 h): 3.77 %ID/g

For quick reference, copied from above:
N=C(N)NCc1ccc(C(=O)NCCCC[C@H](NC(=O)N[C@@H](CCC(=O)O)C(=O)O)C(=O)O)cc1[131I]  tissue uptake (SCID mouse, PC-3 xenografts, lungs; 1 h): 2.43 ± 0.38 %ID/g
COc1cc(NC(=O)C(=O)c2c(C)n(Cc3ccc(Cl)cc3)c3ccc(C)cc23)ccn1  bioavailability (cynomolgus monkey, plasma; oral, 10 mg/kg): 14 to 21%
CC1N=C(c2ccccc2F)c2cc(Br)ccc2-n2cnc(C(=O)OC3OC(CO)C(O)C(O)C3O)c21 (stereo not drawn)  cumulative excretion (LC-MS/MS; Swiss Webster mouse, female, urine; intraperitoneal, 750 µg parent drug, 0 to 24 h): 13.9 ± 7.1%
